Measurements collected from several papers.
Numbered parts are unrelated; each lists some results of a single study.
Chain of UniProt P28221 (whole entry, looked up): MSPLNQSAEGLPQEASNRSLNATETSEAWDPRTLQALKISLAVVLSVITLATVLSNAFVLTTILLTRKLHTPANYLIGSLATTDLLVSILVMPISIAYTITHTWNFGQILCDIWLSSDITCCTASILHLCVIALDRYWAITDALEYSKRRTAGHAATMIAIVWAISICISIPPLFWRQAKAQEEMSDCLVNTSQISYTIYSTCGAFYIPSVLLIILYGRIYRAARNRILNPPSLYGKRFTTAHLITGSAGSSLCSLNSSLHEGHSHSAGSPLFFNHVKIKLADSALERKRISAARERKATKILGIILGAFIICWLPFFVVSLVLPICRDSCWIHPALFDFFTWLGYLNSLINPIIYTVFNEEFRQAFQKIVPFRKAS
Chain of UniProt Q9UQ88 (whole entry, looked up): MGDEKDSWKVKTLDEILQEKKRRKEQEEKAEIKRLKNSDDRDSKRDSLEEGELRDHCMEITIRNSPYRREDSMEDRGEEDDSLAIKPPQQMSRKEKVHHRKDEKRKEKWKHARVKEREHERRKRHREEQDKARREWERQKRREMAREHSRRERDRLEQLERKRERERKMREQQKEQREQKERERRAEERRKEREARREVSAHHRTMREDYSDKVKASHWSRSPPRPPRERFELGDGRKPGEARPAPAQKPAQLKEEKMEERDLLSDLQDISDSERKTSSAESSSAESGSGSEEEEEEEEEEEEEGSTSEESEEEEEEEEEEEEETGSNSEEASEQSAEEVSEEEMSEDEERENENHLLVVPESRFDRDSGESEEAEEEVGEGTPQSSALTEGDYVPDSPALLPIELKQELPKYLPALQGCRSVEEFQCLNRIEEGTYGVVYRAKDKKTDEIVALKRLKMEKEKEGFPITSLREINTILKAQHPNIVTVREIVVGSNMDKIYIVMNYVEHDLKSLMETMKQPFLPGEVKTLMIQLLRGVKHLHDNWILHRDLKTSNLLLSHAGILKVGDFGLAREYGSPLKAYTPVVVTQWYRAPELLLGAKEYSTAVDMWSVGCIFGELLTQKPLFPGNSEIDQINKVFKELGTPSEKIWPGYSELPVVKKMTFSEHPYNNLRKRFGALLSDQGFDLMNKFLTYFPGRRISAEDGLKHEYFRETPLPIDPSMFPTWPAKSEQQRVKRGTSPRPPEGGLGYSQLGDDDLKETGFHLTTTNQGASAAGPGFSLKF

Block 1 — action: inhibitor; setting: literature data
Target: Synaptic vesicular amine transporter (SLC18A2, Homo sapiens, UniProt Q05940)
Chain of UniProt Q05940 (whole entry, looked up): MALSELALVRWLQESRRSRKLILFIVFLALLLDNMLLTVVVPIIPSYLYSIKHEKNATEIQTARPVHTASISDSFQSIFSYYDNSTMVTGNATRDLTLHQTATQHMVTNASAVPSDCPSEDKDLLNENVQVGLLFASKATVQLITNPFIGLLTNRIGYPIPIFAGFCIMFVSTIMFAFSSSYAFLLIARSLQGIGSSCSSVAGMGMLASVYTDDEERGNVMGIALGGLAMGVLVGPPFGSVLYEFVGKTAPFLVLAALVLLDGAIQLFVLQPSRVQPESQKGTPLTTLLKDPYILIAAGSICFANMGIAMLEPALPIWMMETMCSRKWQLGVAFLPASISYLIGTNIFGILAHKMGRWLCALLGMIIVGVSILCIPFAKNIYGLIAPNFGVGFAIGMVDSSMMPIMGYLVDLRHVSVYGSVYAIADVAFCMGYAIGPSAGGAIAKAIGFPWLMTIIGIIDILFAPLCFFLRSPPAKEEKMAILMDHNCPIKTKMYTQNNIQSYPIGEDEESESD
| SMILES | IC50 |
| --- | --- |
| C[C@H]1C[C@@H]2[C@H]([C@@H](O)C[C@@]3(C)[C@H]2CC[C@]3(O)C(=O)CO)[C@@]2(C)C=CC(=O)C=C12 | > 10 µM |
| C=CC(=O)N1CCC[C@@H](n2nc(-c3ccc(Oc4ccccc4)cc3)c3c(N)ncnc32)C1 | 5.2 µM |
| Cc1nc2n(c(=O)c1CCN1CCC(c3noc4cc(F)ccc34)CC1)CCCC2 | 1.64 µM |
| COc1ccnc(C[S+]([O-])c2nc3ccc(OC(F)F)cc3[nH]2)c1OC (stereo not shown) | > 10 µM |
| CN1CCN2c3ncccc3Cc3ccccc3C2C1 (stereo not shown) | > 10 µM |
| CCCc1nn(C)c2c(=O)[nH]c(-c3cc(S(=O)(=O)N4CCN(C)CC4)ccc3OCC)nc12 | 3.96 µM |
| COc1cc2nc(N3CCN(C(=O)C4CCCO4)CC3)nc(N)c2cc1OC (stereo not shown) | 0.313 µM |

Block 2 — cell line: mouse MPNST tumor cells; technique: high-content immunofluorescence imaging; item: nuclear SOX9; concentration: 10 µM; time: 12 h; setting: mean of 2 replicates; reference: DMSO control; direction: higher = more nuclear SOX9
| Compound | nuclear SOX9 intensity |
| --- | --- |
| C[C@]12CC[C@H]3[C@@H](CCC4=CC(=O)CC[C@@]43C)[C@@H]1CC[C@@H]2C(=O)CO | 94.6 % of DMSO |
| O=C(O)CCNC(=O)c1ccc(/N=N/c2ccc(O)c(C(=O)O)c2)cc1 | 96.1 % of DMSO |
| CCCCCCCCCCCCc1ccc(S(=O)(=O)Nc2nncs2)cc1 | 91.7 % of DMSO |
| C#Cc1cccc(Nc2ncnc3cc(OCCOC)c(OCCOC)cc23)c1 | 90.9 % of DMSO |
| Cc1c(N)c(=O)n(-c2ccccc2)n1C | 103 % of DMSO |
| CC12CCC(=O)C=C1CCC1C2C(O)CC2(C)C1CCC2(O)C(=O)CO (stereo not shown) | 86.7 % of DMSO |
| CC(CNC1CCCCC1)OC(=O)c1ccccc1 (stereo not shown) | 102 % of DMSO |
| Cc1ccc(C(=O)c2ccc(CC(=O)O)n2C)cc1 | 105 % of DMSO |

Single results of other studies
| SMILES | target or system | test | test system | setting | measurement | value |
| --- | --- | --- | --- | --- | --- | --- |
| Cn1cncc1[C@@](O)(COc1ccc(C#N)cc1-c1ccc(OC(F)(F)F)cc1)c1ccc(C#N)cc1 | HEK293T | high-content imaging |  | 10 µM, 24 h | mitotic cells | 87.9% |
| COc1ccc(-c2c(Nc3ccccn3)[nH]c3c(C4=CCCCC4)c(-c4ccccc4)nn3c2=O)cc1 |  | LC-MS/MS non-compartmental | human, plasma | oral, 200 mg twice daily, 24 h, cycle 1 | last measurable concentration | 8940 ng/mL |
| CO[C@H]1CC[C@H](CNc2ccc(S(=O)(=O)NC(=O)c3ccc(N4CCN(CC5=C(c6ccc(Cl)cc6)CC(C)(C)CC5)CC4)cc3Oc3cnc4[nH]ccc4c3)cc2[N+](=O)[O-])CC1 | CDK11A (Homo sapiens, UniProt Q9UQ88) | binding, competition with immobilised ligand |  | 1 µM | remaining binding | 95% |
| CCCCN(CCCC)C(=O)CN1C[C@H](c2cc(OC)c3c(c2)OCO3)[C@@H](C(=O)O)[C@@H]1CC(C)(C)CCC | HTR1D (Homo sapiens, UniProt P28221) | ligand displacement, radioligand |  | 10 µM | inhibition | -13.8% |

Repeated from above (block 1):
| SMILES | IC50 |
| --- | --- |
| C[C@H]1C[C@@H]2[C@H]([C@@H](O)C[C@@]3(C)[C@H]2CC[C@]3(O)C(=O)CO)[C@@]2(C)C=CC(=O)C=C12 | > 10 µM |
| C=CC(=O)N1CCC[C@@H](n2nc(-c3ccc(Oc4ccccc4)cc3)c3c(N)ncnc32)C1 | 5.2 µM |
| Cc1nc2n(c(=O)c1CCN1CCC(c3noc4cc(F)ccc34)CC1)CCCC2 | 1.64 µM |
